{"data": "Published values of several laboratories", "note": "Protocols differ between the studies behind these lines. “And” joins repeats or separate records; there may be more than shown. Numbers after ± are the reported error."}
{"SMILES": "O=C(NS(=O)(=O)c1cccs1)c1cc2ccccc2n1Cc1ccc(Br)c2ccccc12", "system": "Sprague-Dawley rat, male", "endpoint": "oral bioavailability", "result": "53.2%"}
{"SMILES": "CC(C)C[C@H](NC(=O)[C@@H](CCCCNC(=O)[C@@H](Cc1ccccc1)NC(=O)CCCCCCCNC(=O)CN1CCN(CC(=O)O)CCN(CC(=O)O)CCN(CC(=O)O)CC1)NC(=O)[C@H](Cc1ccc(O)cc1)NC(=O)[C@H](CO)NC(=O)[C@H](Cc1c[nH]c2ccccc12)NC(=O)[C@H](Cc1c[nH]cn1)NC(=O)[C@@H]1CCC(=O)N1)C(=O)N[C@@H](CCCNC(=N)N)C(=O)N1CCC[C@H]1C(=O)NCC(N)=O [indium-111 labelled]", "system": "male athymic nude mice, DU-145 prostate cancer xenograft, kidney", "conditions": "intravenous, 0.037 MBq, 0.5 h", "endpoint": "tissue uptake", "result": "8.01 ± 0.57 %ID/g"}
{"SMILES": "O=[N+]([O-])c1ccc(/C=N/Nc2nnc(N/N=C/c3ccc([N+](=O)[O-])o3)c3ccccc23)o1", "assay": "haemolysis", "system": "human", "conditions": "10 mM, 45 min", "endpoint": "haemolysis", "result": "23.4%"}
{"SMILES": "COCC1CN(C2CCN(c3cc(OC)c(Nc4ncc(Br)c(Nc5ccc6c(c5P(C)(C)=O)OCCO6)n4)cc3C)CC2)C1", "system": "EGFR-mutant NSCLC patients, plasma", "conditions": "oral, 150 mg single dose, median", "endpoint": "Tmax", "result": "4.01 h"}
{"SMILES": "CCc1cnc(NC(=O)c2cc(S(=O)(=O)N3CCOCC3)ccc2N(C)C2CCCC2)s1", "system": "mouse", "conditions": "10 mg/kg, 3 doses", "endpoint": "mean corpuscular haemoglobin concentration", "result": "29.3 g/dL"}
{"SMILES": "CCCC[C@H](OC(C)=O)c1ccccc1C(=O)O", "system": "Sprague-Dawley rats, both sexes, whole blood", "conditions": "intravenous, 1.25 mg/kg single dose", "endpoint": "MRT(0-inf)", "result": "5.2 ± 2.5 h"}
{"SMILES": "CCCCN1C(=O)c2cccc3c(NCCCCN4CCOCC4)ccc(c23)C1=O", "system": "water", "conditions": "pH 6.0", "endpoint": "molar extinction coefficient", "result": "12000 M⁻¹ cm⁻¹"}
{"SMILES": "C/C(N)=N/C(=N\\S(=O)(=O)c1ccc(C(F)(F)F)cc1)N1C[C@H](c2ccccc2)C(c2ccc(Cl)cc2)=N1", "system": "male C57BL/6 mouse, muscle", "conditions": "intravenous, 10 mg/kg", "endpoint": "Tmax", "result": "2 h"}
{"SMILES": "CCCCN1C(=O)c2cccc3c(NCCCN4CCOCC4)ccc(c23)C1=O", "system": "EtOAc", "endpoint": "molar extinction coefficient", "result": "4600 M⁻¹ cm⁻¹"}
{"SMILES": "O=C(Nc1cnccc1-c1ccc([18F])nc1)c1ccnc(NC(=O)C2CC2)c1", "assay": "ex vivo gamma counting", "system": "FVB/NJ mice, both sexes, cecum", "conditions": "intravenous, 120 min", "endpoint": "mean SUV", "result": 7.24}
{"SMILES": "COc1cccc(OC)c1-c1cc(C(=O)NC2(C(=O)O)C3CC4CC(C3)CC2C4)nn1-c1ccc(C(=O)NCCNC(=O)[C@H](CCCCNC(=O)[C@H](CC(C)C)NC(=O)C2OC2C(=O)O)NC(=O)CN2CCN(CC(=O)[O-])CCN(CC(=O)[O-])CCN(CC(=O)[O-])CC2)cc1C(C)C.[177Lu+3] (mixture of isomers)", "system": "mouse, HT-29 xenograft", "conditions": "4 h post injection, biodistribution", "scale": "baseline: tumour over brain uptake", "endpoint": "tumour-to-brain ratio", "result": 61.8}
{"SMILES": "C=CC(=O)Nc1cc(Nc2nccc(-c3cn(C)c4ccccc34)n2)c(OC)cc1N(C)CCNC", "assay": "storage stability", "system": "human plasma", "conditions": "10 d, on ice, MQC level", "endpoint": "recovery", "result": "64.4%"}
{"SMILES": "COc1ccc(CCC(C)N2CCc3cc(O[11CH3])c(OC)cc3C2)cc1 (racemic)", "system": "brain homogenate", "conditions": "injection, 30 min", "scale": "baseline: radioactivity", "endpoint": "hydrophilic metabolite fraction", "result": "3.3 ± 1%"}
{"SMILES": "CCN(CC)c1ccc2c(c1)O[B-]1(c3ccccc3C#N)OC(=O)C(c3ccccc3)=N[N+]1=C2CC(C)C (stereo not drawn)", "system": "toluene", "endpoint": "molar absorption coefficient", "result": "49000 M⁻¹ cm⁻¹"}
{"SMILES": "CN(CCCO)Cc1ccc(-c2noc(-c3ccc(OCC[18F])c(C(F)(F)F)c3)n2)cc1F", "system": "Sprague-Dawley rat, male, bone", "conditions": "5 min post-injection", "endpoint": "bone uptake", "result": "0.27 ± 0.03 %ID/g"}
{"SMILES": "O=C([O-])CN1CCN(CC(=O)[O-])CCN(CC(=O)NCC2CCC(C(=O)NC(Cc3ccc4ccccc4c3)C(=O)NCCCCC(NC(=O)NC(CCC(=O)O)C(=O)O)C(=O)O)CC2)CCN(CC(=O)[O-])CC1.[68Ga+3] (stereo not drawn)", "assay": "micro-PET/CT", "system": "mouse 22Rv1 xenograft, tumour", "conditions": "2 h post-injection", "endpoint": "mean tumour uptake", "result": "5.77 ± 0.5 %ID/g"}
{"SMILES": "O=C(Nc1cnccc1-c1ccc([18F])cc1)c1ccnc(NC(=O)C2CC2)c1", "assay": "ex vivo gamma counting", "system": "GSK-3β transgenic mice, late-stage, urine", "conditions": "intravenous, 120 min, mean, P-gp inhibitor pretreatment, together with: tariquidar 15 mg/kg iv", "endpoint": "SUV", "result": 6.42}
{"SMILES": "C=CC(=O)N1CCCC(n2c(=O)c3ncccc3n(Cc3ccc(Oc4ccccc4)cc3)c2=O)C1 (stereo not drawn)", "system": "BALB/c mice, male, plasma", "conditions": "oral, 200 mg/kg, 4 h", "endpoint": "plasma concentration", "result": "5210 ng/mL"}
{"SMILES": "CCCCN1C(=O)c2cccc3c(NCCCCCCCCN4CCOCC4)ccc(c23)C1=O", "system": "ethylene glycol", "endpoint": "molar extinction coefficient", "result": "12200 M⁻¹ cm⁻¹"}
{"SMILES": "Cc1[nH]c(=O)c(CNC(=O)c2cc(Cl)c3c(c2C)O[C@@](C)([C@H]2CC[C@H](N(C)C)CC2)O3)c(C)c1O", "assay": "radiochromatography", "system": "human, urine", "conditions": "oral, 200 mg", "scale": "baseline: dose", "endpoint": "urinary excretion", "result": "1.1% and 0.7% and 0.6% and 0.8%"}
{"SMILES": "COc1ccc([C@@H]2CC(=O)c3c(O)cc(O[C@@H]4O[C@H](CO)[C@@H](O)[C@H](O)[C@H]4O[C@@H]4O[C@@H](C)[C@H](O)[C@@H](O)[C@H]4O)cc3O2)cc1O", "assay": "LC-MS/MS", "system": "Sprague-Dawley rat, male, lean, plasma", "conditions": "oral, 100 mg/kg", "endpoint": "half-life", "result": "5.88 ± 1.31 h"}
{"SMILES": "CN(O)C(=O)CCC(=O)NCCCN(CCCCN(CCCNC(=O)CCC(=O)N(C)O)C(=O)CCC(=O)N(C)O)C(=O)CCC(=O)N(C)O.[89Zr]", "system": "PBS", "conditions": "5 days, pH 7, 37 °C", "endpoint": "intact compound", "result": "98 ± 1.7%"}
{"SMILES": "C=C(NC(=O)c1csc(-c2nc3c(cc2O)-c2nc(cs2)C(=O)NC(C(C)O)C(=O)NC(=C(C)OC)c2nc(cs2)C(=O)NC2c4nc(cs4)C(=O)NC(COC(=O)c4c5c6c(cccc6n4O)COC(=O)C(OC4CC(C)(O)C(N(C)C)C(C)O4)C2OC5)c2nc-3cs2)n1)C(N)=O (stereo not drawn)", "system": "Sprague-Dawley rat, both sexes, plasma", "conditions": "intravenous infusion, 18 mg/kg single dose", "endpoint": "Cmax", "result": "8050 ± 2670 ng/mL"}
{"SMILES": "Nc1nc2cnc(C(=O)N3CCOC[C@@H]3c3ccc(C(F)(F)F)cc3)cc2c2c1COC2", "system": "rat", "conditions": "oral, 2 mg/kg", "endpoint": "oral bioavailability", "result": "23%"}
{"SMILES": "CCCCN1C(=O)c2cccc3c(NCCCCCCCCCCN4CCOCC4)ccc(c23)C1=O", "system": "dichloromethane", "endpoint": "molar extinction coefficient", "result": "12400 M⁻¹ cm⁻¹"}
{"SMILES": "Cc1cc(-c2ccc(C(=O)[C@@H]3CCCC[C@H]3C(=O)Nc3cnn4c3C(=O)NCC4)cc2)[nH]n1", "system": "human, urine", "conditions": "oral, 200 mg, 0-72 h", "scale": "baseline: dose", "endpoint": "cumulative radioactivity recovery", "result": "6.19% and 6.74% and 4.91% and 5.56% and 6.49% and 4.9%"}
{"SMILES": "[123I]c1ccc2nc(-c3ccc(-n4ccnn4)nc3)cn2c1", "system": "male Wistar rat, heart", "conditions": "intravenous, 4 MBq, 1 h", "endpoint": "tracer uptake", "result": "0.073 %ID/g"}
{"SMILES": "CN1CCC[C@]1(C)/C=C/S(=O)(=O)NC(=O)Nc1c2c(cc3c1CCC3)CCC2", "assay": "measured: nasopharyngitis, not related", "system": "human", "conditions": "oral, 100 mg twice daily, 14 days, multiple ascending dose", "endpoint": "subjects with adverse event", "result": "0%"}
{"SMILES": "CC(=O)N[C@H](CC(=O)O)C(=O)N[C@H](Cc1c[nH]c2ccccc12)C(=O)N[C@H](Cc1ccccc1)C(=O)N[C@H](CCCCN)C(=O)N[C@H](C)C(=O)N[C@H](Cc1ccccc1)C(=O)N[C@H](Cc1ccc(O)cc1)C(=O)N[C@H](CC(=O)O)C(=O)N[C@H](CCCCN)C(=O)N[C@@H](C(=O)N[C@H](C)C(=O)N[C@H](CCC(=O)O)C(=O)N[C@H](CCCCN)C(=O)N[C@H](Cc1ccccc1)C(=O)N[C@H](CCCCN)C(=O)N[C@H](CCC(=O)O)C(=O)N[C@H](C)C(=O)N[C@H](Cc1ccccc1)C(N)=O)C(C)C", "system": "high-risk statin-treated women with CHD, plasma", "conditions": "oral, dose not given, median, doses pooled", "endpoint": "AUC(0-t)", "result": "37.7 ng·h/mL"}
{"SMILES": "COc1ccc2c(c1)CN(C(=O)CCN1CCC(Cc3ccccc3)CC1)CC[S+]2[O-] (stereo not drawn)", "system": "dog plasma", "conditions": "75 ng/mL", "endpoint": "fu", "result": 0.322}
